Results collected from several papers.
± gives the spread as reported.
USP5: Ubiquitin carboxyl-terminal hydrolase 5 (USP5, Homo sapiens, UniProt P45974)
UniProt P45974, sequence (whole entry, looked up): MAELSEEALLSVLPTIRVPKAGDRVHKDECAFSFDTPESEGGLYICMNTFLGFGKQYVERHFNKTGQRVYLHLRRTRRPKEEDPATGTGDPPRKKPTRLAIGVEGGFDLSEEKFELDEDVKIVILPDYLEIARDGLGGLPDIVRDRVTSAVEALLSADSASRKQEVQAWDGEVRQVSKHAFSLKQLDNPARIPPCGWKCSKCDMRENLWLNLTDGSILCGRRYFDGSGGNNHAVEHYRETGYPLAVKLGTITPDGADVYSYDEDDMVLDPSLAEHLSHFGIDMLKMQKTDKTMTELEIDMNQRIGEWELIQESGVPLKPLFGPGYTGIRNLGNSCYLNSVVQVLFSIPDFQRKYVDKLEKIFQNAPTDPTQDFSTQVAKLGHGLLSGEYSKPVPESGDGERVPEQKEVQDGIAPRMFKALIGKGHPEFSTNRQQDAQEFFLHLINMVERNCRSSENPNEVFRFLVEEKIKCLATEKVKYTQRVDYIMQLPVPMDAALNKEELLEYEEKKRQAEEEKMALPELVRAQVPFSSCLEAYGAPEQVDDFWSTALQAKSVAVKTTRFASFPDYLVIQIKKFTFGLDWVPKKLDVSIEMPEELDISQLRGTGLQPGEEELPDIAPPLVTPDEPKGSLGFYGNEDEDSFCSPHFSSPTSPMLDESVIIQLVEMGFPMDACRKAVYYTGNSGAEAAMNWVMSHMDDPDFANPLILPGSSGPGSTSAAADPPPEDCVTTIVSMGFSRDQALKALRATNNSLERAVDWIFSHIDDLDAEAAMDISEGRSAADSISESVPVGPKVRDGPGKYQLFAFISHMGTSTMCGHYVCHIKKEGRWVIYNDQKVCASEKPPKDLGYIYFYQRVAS
UniProt O88693, sequence (whole entry, looked up): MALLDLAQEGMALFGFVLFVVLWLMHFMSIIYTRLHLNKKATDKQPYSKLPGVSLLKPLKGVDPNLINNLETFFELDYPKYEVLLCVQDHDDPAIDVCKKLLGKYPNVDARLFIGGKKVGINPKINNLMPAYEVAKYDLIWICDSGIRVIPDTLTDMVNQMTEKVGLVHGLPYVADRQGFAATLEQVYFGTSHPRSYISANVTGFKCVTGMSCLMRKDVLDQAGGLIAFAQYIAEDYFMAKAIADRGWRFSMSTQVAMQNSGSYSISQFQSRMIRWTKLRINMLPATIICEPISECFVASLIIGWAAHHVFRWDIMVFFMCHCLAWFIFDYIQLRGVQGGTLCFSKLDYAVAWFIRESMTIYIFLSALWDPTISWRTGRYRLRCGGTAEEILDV
UniProt P22001, sequence (whole entry, looked up): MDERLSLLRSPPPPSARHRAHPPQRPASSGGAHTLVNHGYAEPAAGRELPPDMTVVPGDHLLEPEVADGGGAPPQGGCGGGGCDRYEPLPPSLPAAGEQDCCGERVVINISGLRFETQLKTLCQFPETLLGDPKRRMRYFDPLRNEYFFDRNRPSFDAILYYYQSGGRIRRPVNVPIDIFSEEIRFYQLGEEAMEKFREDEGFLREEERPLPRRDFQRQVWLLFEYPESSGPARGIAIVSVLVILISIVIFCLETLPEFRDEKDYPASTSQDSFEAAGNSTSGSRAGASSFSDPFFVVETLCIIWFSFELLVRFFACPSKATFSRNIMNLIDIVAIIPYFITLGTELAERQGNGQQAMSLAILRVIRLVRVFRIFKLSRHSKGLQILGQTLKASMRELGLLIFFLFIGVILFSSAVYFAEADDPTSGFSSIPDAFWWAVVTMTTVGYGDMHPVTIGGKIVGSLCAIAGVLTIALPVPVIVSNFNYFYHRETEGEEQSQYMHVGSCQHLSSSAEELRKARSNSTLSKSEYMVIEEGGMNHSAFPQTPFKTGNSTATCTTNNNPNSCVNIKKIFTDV
UniProt P35354, sequence (whole entry, looked up): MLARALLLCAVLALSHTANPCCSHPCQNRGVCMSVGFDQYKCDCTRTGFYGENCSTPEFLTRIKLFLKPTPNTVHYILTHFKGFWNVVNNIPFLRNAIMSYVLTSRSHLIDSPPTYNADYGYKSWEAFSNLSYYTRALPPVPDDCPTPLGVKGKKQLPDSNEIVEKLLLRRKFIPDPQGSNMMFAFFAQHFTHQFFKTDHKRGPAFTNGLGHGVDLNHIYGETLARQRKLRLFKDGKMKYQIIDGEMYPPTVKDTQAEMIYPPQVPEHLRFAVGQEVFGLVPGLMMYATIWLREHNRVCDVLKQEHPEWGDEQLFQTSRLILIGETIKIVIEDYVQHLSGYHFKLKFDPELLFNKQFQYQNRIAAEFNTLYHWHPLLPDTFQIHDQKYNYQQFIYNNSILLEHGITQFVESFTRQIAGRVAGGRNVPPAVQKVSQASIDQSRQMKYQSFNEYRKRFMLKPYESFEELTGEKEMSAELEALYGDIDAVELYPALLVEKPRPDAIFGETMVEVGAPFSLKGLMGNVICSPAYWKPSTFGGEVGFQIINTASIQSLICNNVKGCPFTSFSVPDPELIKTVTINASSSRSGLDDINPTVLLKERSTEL
UniProt Q9H5I1, sequence (whole entry, looked up): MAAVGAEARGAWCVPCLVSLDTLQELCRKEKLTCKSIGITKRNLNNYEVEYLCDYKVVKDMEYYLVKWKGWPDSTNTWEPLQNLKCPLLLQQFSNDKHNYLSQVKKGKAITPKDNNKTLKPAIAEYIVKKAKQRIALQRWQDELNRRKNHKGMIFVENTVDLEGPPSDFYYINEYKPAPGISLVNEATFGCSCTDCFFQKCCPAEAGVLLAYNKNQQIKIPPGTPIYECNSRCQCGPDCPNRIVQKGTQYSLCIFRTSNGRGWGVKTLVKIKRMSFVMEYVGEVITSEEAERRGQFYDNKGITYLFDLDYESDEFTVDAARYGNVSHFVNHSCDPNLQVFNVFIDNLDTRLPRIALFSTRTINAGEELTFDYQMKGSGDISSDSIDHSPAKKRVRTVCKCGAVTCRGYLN
UniProt P35414, sequence (whole entry, looked up): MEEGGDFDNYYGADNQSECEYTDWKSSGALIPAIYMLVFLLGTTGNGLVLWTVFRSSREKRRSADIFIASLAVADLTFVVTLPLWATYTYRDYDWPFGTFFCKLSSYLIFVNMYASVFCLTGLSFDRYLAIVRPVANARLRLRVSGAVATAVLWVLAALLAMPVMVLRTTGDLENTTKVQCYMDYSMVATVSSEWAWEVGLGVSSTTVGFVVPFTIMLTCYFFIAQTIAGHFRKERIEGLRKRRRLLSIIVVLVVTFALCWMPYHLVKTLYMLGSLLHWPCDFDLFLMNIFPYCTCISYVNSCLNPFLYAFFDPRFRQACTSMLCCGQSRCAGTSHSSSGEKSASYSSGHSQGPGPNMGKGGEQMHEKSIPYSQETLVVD
UniProt P10275, sequence (whole entry, looked up): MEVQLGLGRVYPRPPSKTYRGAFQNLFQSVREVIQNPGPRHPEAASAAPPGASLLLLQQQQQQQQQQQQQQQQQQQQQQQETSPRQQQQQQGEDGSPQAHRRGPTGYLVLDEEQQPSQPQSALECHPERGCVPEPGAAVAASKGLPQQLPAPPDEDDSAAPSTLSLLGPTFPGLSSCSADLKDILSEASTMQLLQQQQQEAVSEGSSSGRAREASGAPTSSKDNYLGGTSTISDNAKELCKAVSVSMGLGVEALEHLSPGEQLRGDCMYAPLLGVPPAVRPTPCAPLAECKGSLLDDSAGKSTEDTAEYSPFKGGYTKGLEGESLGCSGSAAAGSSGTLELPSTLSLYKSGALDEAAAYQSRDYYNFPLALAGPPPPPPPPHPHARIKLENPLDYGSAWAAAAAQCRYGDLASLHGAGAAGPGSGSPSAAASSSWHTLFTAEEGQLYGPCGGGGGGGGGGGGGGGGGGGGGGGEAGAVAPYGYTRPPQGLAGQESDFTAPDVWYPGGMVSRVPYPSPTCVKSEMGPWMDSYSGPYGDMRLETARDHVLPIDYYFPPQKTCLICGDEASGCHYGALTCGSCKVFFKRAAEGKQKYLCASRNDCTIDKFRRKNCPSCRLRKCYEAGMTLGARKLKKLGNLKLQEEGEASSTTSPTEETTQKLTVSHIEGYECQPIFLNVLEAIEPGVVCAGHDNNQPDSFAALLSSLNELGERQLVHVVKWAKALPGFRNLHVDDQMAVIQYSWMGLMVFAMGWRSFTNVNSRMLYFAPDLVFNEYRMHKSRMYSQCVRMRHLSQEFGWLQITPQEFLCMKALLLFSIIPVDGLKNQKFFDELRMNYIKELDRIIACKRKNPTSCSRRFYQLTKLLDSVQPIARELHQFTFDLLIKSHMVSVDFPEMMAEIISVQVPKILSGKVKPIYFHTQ

| SMILES | tested on | test | system | setting | endpoint | value |
| --- | --- | --- | --- | --- | --- | --- |
| C/C=C/C(=O)Nc1ccc2nc(NCCCCCN(C)C)nc(NCCCCCCN(C)C)c2c1 | SUV39H2 (Homo sapiens, UniProt Q9H5I1) | enzyme activity, inhibitor, radiometric |  | 50 µM | inhibition | 1% |
| CC(=O)C12NC(C)(C)CC1(C)C(=O)C1=C2c2c(c3c4n2C(C)(C)CC2=C4C4(CC(C)(C)NC(C)(C4)C2=O)CC3(C)C)C(=O)C(C)(C)N1 (single isomer, unassigned; (-)) | KCNA3 (Homo sapiens, UniProt P22001) | antagonist | HEK293T | 10 µM | inhibition | 93.66 ± 0.02% |
| O=C(CN1CCOCC1)Nc1ccc(C2CCCCC2)cc1 |  | liver microsome stability | human liver microsomes | 1 µM, without NADPH | hepatic clearance | 3.9 mL/min/kg |
| CO[C@@H]1OC[C@@H](O)[C@H](O)[C@H]1O | PTGS2 (Homo sapiens, UniProt P35354) | enzyme activity, inhibitor |  | 0.12 µg/mL | inhibition | 0% |
| CC(C(=O)O)N1C(=O)C(=Cc2ccco2)SC1=S (stereo not drawn) | USP5 | enzyme activity, inhibitor |  | 17 µM | inhibition | 15% |
| O=C1c2sc(-c3ccc(N4CCC(F)C4)nc3F)nc2CCN1c1cccnc1 (stereo not drawn) | Apelin receptor (APLNR, Homo sapiens, UniProt P35414) | ligand displacement, radioligand |  | 1 µM | inhibition | 0% |
| Nc1ncc(-c2ccc(C3CCCCC3)cc2)cn1 |  | liver microsome stability | dog liver microsomes | 1 µM | hepatic clearance | 29 mL/min/kg |
| O=C(NN=C1CC(=NNC(=O)c2ccncc2)c2ccccc21)c1ccncc1 | USP5 | enzyme activity, inhibitor |  | 17 µM | inhibition | 96% |
| C[Si](C)(C)C[C@@H](CN)CC(=O)O | NMDA receptor, rat | binding, radioligand binding |  | 75 µM, with: [3H]TCP | inhibition | -2% |
| O=C1c2sc(-c3ccc(N4CCC(CO)CC4)nc3F)nc2CCN1c1cccnc1 | Androgen receptor (AR, Homo sapiens, UniProt P10275) | ligand displacement, radioligand |  | 1 µM | inhibition | 9% |
| CSc1nnc2c(n1)OC(C(=O)c1ccccc1)Nc1ccccc1-2 (stereo not drawn) | USP5 | enzyme activity, inhibitor |  | 17 µM | inhibition | 34% |
| OC[C@H]1[C@@H](O)[C@H](O)[C@@H](O)CN1CCCCCOCc1ccsc1 | Ugcg (Mus musculus, UniProt O88693) | enzyme activity, inhibitor | RAW264.7 | in situ, with: C6-NBD-ceramide | IC50 | 53 nM |

A few entries again:
| SMILES | tested on | test | system | setting | endpoint | value |
| --- | --- | --- | --- | --- | --- | --- |
| CC(=O)C12NC(C)(C)CC1(C)C(=O)C1=C2c2c(c3c4n2C(C)(C)CC2=C4C4(CC(C)(C)NC(C)(C4)C2=O)CC3(C)C)C(=O)C(C)(C)N1 (single isomer, unassigned; (-)) | KCNA3 (Homo sapiens, UniProt P22001) | antagonist | HEK293T | 10 µM | inhibition | 93.66 ± 0.02% |
